# Results gathered from unrelated publications.
# Parts stem from different laboratories: compare values within a part only.
# Sequence of UniProt O75914 (whole entry, looked up): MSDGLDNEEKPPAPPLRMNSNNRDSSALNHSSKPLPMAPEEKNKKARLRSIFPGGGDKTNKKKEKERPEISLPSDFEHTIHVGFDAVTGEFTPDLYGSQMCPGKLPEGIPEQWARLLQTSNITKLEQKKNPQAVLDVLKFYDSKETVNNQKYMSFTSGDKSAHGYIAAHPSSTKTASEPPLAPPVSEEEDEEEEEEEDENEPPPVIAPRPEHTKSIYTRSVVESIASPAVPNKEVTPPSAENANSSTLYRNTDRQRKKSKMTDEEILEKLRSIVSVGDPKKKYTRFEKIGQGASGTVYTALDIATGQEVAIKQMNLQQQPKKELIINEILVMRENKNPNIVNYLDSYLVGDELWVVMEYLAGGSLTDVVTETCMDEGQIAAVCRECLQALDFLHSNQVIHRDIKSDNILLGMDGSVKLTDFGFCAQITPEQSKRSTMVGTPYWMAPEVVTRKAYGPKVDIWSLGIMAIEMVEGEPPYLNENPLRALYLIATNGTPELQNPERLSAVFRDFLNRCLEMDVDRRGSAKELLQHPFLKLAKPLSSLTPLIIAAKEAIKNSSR
# Sequence of UniProt Q96D53 (whole entry, looked up): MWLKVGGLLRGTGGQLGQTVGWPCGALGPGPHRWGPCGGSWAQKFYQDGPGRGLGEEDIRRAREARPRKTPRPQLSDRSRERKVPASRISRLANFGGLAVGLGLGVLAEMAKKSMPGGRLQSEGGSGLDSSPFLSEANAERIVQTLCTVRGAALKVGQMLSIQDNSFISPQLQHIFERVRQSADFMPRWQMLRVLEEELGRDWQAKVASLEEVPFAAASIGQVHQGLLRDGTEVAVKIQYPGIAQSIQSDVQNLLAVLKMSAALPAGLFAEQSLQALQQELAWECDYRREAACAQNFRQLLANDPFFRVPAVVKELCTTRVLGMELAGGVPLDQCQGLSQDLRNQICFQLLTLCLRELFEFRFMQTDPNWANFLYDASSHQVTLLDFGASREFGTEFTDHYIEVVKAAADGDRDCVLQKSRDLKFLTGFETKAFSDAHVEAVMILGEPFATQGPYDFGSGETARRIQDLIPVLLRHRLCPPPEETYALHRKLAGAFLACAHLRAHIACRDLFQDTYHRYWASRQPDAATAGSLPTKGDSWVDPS
# Sequence of UniProt P78368 (whole entry, looked up): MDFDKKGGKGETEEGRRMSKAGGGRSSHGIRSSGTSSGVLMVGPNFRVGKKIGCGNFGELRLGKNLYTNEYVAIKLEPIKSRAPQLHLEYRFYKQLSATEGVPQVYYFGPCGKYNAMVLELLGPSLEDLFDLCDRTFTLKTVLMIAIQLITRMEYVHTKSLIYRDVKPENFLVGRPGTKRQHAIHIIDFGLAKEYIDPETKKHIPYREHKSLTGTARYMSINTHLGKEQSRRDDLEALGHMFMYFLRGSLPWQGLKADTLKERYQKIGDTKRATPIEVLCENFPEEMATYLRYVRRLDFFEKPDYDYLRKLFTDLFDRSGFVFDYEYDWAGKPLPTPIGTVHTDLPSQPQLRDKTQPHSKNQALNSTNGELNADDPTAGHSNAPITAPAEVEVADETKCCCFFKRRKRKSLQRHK
# Sequence of UniProt P49336 (whole entry, looked up): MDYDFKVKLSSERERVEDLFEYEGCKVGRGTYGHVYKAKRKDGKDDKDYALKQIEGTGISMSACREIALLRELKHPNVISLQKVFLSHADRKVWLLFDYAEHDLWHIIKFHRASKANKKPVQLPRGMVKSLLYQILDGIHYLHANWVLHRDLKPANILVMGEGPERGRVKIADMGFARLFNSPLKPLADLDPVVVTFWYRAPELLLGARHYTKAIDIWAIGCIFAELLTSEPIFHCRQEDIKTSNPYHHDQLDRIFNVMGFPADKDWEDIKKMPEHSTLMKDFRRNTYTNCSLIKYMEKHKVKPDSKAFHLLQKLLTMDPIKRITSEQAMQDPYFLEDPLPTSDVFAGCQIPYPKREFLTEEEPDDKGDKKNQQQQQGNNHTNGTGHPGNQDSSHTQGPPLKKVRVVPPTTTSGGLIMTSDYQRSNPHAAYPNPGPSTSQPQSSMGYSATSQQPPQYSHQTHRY
# Sequence of UniProt O75582 (whole entry, looked up): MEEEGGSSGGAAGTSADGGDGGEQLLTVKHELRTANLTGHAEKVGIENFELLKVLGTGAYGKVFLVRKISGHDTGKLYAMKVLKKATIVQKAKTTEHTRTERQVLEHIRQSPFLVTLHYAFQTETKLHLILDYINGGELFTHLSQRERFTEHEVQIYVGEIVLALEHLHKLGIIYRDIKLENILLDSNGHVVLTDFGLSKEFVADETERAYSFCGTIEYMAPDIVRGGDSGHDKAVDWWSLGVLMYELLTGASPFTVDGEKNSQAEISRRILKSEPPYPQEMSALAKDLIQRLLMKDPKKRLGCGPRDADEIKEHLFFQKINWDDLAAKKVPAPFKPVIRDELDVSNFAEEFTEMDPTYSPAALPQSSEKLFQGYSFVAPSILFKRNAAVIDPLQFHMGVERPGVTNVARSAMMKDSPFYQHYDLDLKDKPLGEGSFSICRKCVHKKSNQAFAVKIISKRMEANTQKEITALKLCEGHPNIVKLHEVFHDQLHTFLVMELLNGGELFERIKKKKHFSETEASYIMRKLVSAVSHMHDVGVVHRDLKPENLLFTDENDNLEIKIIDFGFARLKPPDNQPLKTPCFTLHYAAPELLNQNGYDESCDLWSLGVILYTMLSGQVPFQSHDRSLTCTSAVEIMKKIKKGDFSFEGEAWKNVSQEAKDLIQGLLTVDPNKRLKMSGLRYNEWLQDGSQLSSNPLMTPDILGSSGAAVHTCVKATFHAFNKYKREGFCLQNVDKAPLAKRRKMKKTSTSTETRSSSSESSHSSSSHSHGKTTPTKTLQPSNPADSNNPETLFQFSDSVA
# Sequence of UniProt Q9BYT3 (whole entry, looked up): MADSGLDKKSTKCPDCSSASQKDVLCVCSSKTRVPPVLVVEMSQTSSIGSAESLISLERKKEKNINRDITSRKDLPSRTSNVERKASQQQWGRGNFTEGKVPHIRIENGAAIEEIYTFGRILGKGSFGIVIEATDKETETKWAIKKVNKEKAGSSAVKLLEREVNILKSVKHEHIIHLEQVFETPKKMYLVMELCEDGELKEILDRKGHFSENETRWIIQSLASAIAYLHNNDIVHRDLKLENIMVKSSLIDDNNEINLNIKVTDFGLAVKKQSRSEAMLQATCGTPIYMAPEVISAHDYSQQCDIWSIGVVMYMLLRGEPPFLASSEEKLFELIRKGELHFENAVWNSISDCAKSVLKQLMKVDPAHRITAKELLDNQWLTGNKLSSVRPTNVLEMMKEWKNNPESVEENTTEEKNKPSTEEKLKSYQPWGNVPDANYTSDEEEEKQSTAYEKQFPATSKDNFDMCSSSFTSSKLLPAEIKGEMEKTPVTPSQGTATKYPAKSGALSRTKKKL
# Sequence of UniProt Q13163 (whole entry, looked up): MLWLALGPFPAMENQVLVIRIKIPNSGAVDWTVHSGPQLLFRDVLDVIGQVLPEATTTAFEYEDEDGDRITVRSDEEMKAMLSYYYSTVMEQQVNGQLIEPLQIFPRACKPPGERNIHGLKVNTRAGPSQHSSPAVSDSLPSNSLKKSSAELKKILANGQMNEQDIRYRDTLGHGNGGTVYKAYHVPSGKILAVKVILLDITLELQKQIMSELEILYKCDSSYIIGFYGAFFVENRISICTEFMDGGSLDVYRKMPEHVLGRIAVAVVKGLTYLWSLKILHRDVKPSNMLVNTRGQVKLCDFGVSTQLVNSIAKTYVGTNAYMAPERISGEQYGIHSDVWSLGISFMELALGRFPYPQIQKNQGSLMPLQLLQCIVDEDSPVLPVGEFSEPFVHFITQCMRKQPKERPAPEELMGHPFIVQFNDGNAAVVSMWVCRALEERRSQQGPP
# Sequence of UniProt P24723 (whole entry, looked up): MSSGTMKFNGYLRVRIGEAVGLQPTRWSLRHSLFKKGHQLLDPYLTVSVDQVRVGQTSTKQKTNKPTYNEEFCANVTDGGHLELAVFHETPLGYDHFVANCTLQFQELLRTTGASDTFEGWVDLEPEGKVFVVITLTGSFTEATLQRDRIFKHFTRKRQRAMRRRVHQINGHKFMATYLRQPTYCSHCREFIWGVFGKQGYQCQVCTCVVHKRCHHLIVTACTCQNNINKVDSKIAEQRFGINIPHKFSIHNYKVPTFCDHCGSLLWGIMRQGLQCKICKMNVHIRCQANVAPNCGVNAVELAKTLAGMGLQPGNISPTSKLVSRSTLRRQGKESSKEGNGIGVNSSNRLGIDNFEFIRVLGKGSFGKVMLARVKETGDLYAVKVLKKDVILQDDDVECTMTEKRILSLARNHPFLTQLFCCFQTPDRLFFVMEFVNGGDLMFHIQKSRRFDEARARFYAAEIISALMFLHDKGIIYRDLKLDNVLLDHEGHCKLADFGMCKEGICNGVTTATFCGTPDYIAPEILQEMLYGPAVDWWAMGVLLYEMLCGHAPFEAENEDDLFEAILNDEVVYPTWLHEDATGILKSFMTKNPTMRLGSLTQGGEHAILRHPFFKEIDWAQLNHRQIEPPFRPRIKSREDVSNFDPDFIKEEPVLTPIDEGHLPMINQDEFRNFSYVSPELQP

# Sample 1
# Species: mouse
# Matrix: microsomes or S9
# Tested at: 2 µM
# Time: 0.5 h
Compound,remaining compound [%]
c1ccc2c(c1)CC(n1ccnc1-c1cc3n(n1)CCNC3)CO2 (centres unmarked),39.9
COc1ccc(-c2c(-c3ccccc3)nn(-c3ccccc3OC)c2N)cc1OC,25.3
Cc1ccc(S(=O)(=O)N[C@@H]2c3c(Cl)cccc3[C@H](C(=O)OC(C)C)[C@H]2C(=O)OC(C)C)cc1,< 1
c1ccc(Oc2ccc(Nc3ncnc4[nH]ncc34)cc2)cc1,6.76
CCOC(=O)Cn1c(=O)n(C2CCCCC2)c(=O)c2c3c(sc21)COC(C)(C)C3,1.13
Cc1cc(C)c(S(=O)(=O)N2CCCCC2)c(C)c1N(C)S(C)(=O)=O,1.77
Cc1n[nH]cc1CNC1(Cc2ccc(Br)cc2)CCCCC1,59.9
CC(NC(C)c1nc(N)nc(N(C)C)n1)c1ccccc1 (centres unmarked),23.5
OCCC1(CNc2cnc3cc(Cl)c(Cl)cc3n2)CCOC1 (centres unmarked),20.1

# Sample 2
# Cell line: mouse MPNST tumor cells
# Technique: high-content nuclear imaging
# Item: cell number
# Tested at: 10 µM
# Time: 12 h
# Notes: mean of 2 replicates
# Baseline: plate mean
# Direction: higher = more cells
Structure (SMILES),nuclei count [z-score]
O=C(OCC(O)CO)c1ccccc1Nc1ccnc2cc(Cl)ccc12 (centres unmarked),1.9
O=C(c1ccc(Cl)cc1)N(Cc1ccccc1)C1CCCCC1,-0.452
CN/C(=N\c1ccc(C2=NNC(=O)CC2C)cc1)NC#N (centres unmarked),1.71
NS(=O)(=O)c1cc2c(cc1Cl)N=CNS2(=O)=O,2.52
Cc1cc(-n2nc(Cc3cc(F)cc(C(F)(F)F)c3)nc2C)ccc1C(N)=O,1.52
Cn1c(=O)c2c(ncn2CC(=O)O)n(C)c1=O,0.452
CCCCCS(=O)(=O)CCCCCCCCCCn1c(-c2ccc(O)cc2)c(C)c2cc(O)ccc21,-1.1
Clc1cccc(COc2cncc(N3CCNCC3)n2)c1,0.668
CCCCOC(=O)c1ccc(O)cc1,2.29
c1cc(CN2CCCNCCNCCCNCC2)ccc1CN1CCCNCCNCCCNCC1,1.56

# Sample 3
# Target: Calcium/calmodulin-dependent protein kinase type II subunit alpha (CAMK2A, Homo sapiens, UniProt Q9UQM7)
# Sequence of UniProt Q9UQM7 (whole entry, looked up): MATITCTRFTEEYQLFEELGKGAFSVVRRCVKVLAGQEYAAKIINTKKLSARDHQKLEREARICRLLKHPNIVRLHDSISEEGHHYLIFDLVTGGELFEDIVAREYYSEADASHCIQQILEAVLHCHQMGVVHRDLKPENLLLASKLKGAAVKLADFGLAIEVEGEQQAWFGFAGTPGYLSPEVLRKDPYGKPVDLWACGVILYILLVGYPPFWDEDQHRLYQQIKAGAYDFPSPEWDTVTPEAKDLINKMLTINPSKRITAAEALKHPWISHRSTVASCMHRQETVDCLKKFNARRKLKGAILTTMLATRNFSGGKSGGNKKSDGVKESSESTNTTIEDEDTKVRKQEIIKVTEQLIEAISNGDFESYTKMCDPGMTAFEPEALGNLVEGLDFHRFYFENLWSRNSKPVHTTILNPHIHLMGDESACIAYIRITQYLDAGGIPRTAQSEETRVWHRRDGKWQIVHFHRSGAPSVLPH
# Observed: enzyme activity
# Action: inhibitor
# Tested at: 10 µM
SMILES,inhibition
O=C1CCNC(=O)N1,-1%
Cc1ccc(CO)o1,13%
COC(=O)C1=CO[C@@H](O[C@@H]2O[C@H](CO[C@@H]3O[C@H](CO)[C@@H](O)[C@H](O)[C@H]3O)[C@@H](O)[C@H](O)[C@H]2O)[C@@H]2C(CO)=CC[C@H]12,-36%
Cc1c(C(=O)Nc2ccc(S(C)(=O)=O)cc2)cn(CCO)c1-c1ccccc1C(F)(F)F,-9%
CCCCCCC[C@H](O)CC(=O)CCc1ccc(O)c(OC)c1,-10%
O=C(/C=C/c1ccc(O)c(O)c1)c1ccc(O[C@@H]2O[C@H](CO)[C@@H](O)[C@H](O)[C@H]2O)c(O)c1O,-4%

# Sample 4
# SMILES: COc1ccc2cc(OCC3(C(=O)O)CN(C(=O)c4ccc(F)cc4)C3)ccc2c1
# Technique: competition with immobilised ligand
# Tested at: 1 µM
target,test,remaining binding [%]
"Tyrosine-protein kinase ABL1, non-phosphorylated (ABL1, Homo sapiens, UniProt P00519, Q252H)",cell-free assay,90
"OXSR1 (Homo sapiens, UniProt O95747)",cell-free assay,100
"MARK3 (Homo sapiens, UniProt P27448)",cell-free assay,94
"COQ8B (Homo sapiens, UniProt Q96D53)",cell-free assay,100
"ULK3 (Homo sapiens, UniProt Q6PHR2)",cell-free assay,86
"Cyclin-dependent kinase 4, with cyclin D1 (CDK4, Homo sapiens, UniProt P11802)",cell-free assay,100
"IRAK4 (Homo sapiens, UniProt Q9NWZ3)",cell-free assay,87
"PAK3 (Homo sapiens, UniProt O75914)",cell-free assay,94
"BTK (Homo sapiens, UniProt Q06187)",cell-free assay,84
"TBK1 (Homo sapiens, UniProt Q9UHD2)",cell-free assay,100
"MAP2K5 (Homo sapiens, UniProt Q13163)",cell-free assay,93
"STK33 (Homo sapiens, UniProt Q9BYT3)",cell-free assay,98
"EPHA6 (Homo sapiens, UniProt Q9UF33)",cell-free assay,100
"PAK6 (Homo sapiens, UniProt Q9NQU5)",cell-free assay,100
"NIM1K (Homo sapiens, UniProt Q8IY84)",cell-free assay,100
"ACVR1 (Homo sapiens, UniProt Q04771)",cell-free assay,100
"PIK3CG (Homo sapiens, UniProt P48736)",cell-free assay,100
"PRKCH (Homo sapiens, UniProt P24723)",cell-free assay,100
"MAPK7 (Homo sapiens, UniProt Q13164)",cell-free assay,100
"TSSK3 (Homo sapiens, UniProt Q96PN8)",cell-free assay,82
"RET (Homo sapiens, UniProt P07949, V804L)",cell-free assay,78
"CDK8 (Homo sapiens, UniProt P49336)",cell-free assay,94
"PIK3CA (Homo sapiens, UniProt P42336, C420R)",cell-free assay,100
"Tyrosine-protein kinase ABL1, phosphorylated (ABL1, Homo sapiens, UniProt P00519, E255K)",binding,100
"RPS6KB1 (Homo sapiens, UniProt P23443)",cell-free assay,100

# Sample 5
# SMILES: O=C(Nc1cnn(-c2csc(C(=O)NC3COC3)c2)c1)Nc1ccccc1Cl
# Observed: enzyme activity
# Tested at: 5 µM
target,test,how to read,remaining activity
"INSRR (Homo sapiens, UniProt P14616)",,baseline: untreated control,93.8%
"NEK3 (Homo sapiens, UniProt P51956)",,baseline: untreated control,99%
"EPHA2 (Homo sapiens, UniProt P29317)",,baseline: untreated control,95.4%
"TEK (Homo sapiens, UniProt Q02763)",,baseline: untreated control,97.2%
"MAPKAPK3 (Homo sapiens, UniProt Q16644)",,baseline: untreated control,77.3%
"CSNK1G2 (Homo sapiens, UniProt P78368)",,baseline: untreated control,94.2%
"RPS6KA5 (Homo sapiens, UniProt O75582)",,baseline: untreated control,87.7%
"PBK (Homo sapiens, UniProt Q96KB5)",inhibitor,,115%
"EPHA7 (Homo sapiens, UniProt Q15375)",,baseline: untreated control,101%

# Repeated from above (sample 4):
target,test,remaining binding [%]
"EPHA6 (Homo sapiens, UniProt Q9UF33)",cell-free assay,100
"PAK6 (Homo sapiens, UniProt Q9NQU5)",cell-free assay,100
"NIM1K (Homo sapiens, UniProt Q8IY84)",cell-free assay,100
"ACVR1 (Homo sapiens, UniProt Q04771)",cell-free assay,100
"PIK3CG (Homo sapiens, UniProt P48736)",cell-free assay,100
"PRKCH (Homo sapiens, UniProt P24723)",cell-free assay,100
"MAPK7 (Homo sapiens, UniProt Q13164)",cell-free assay,100
"TSSK3 (Homo sapiens, UniProt Q96PN8)",cell-free assay,82
"RET (Homo sapiens, UniProt P07949, V804L)",cell-free assay,78
